Published values from different studies.
A part holds a random share of what one study measured.

Study 1 — read-out: peptide-MHC binding; form: peptide; tested at: concentration not given; endpoint: binding
Target: HLA class I histocompatibility antigen, A alpha chain, allele A*26:03 (Homo sapiens, UniProt P04439)
YFENSDLNL: inactive
KSNRIPFLY: inactive
WENGFKVVL: inactive
KVFDKSLLY: inactive

Study 2 — target: UBE2D4 UBC core domain (UniProt Q9Y2X8); technique: yeast two-hybrid; medium: yeast; notes: mostly zero background; reference: not given; reading: higher = stronger interaction; endpoint: lacZ reporter activity
B1: CUL9 RING domain (UniProt Q8IWT3); chain AQAVPVRPDHCPVCVSPLGCDDDLPSLCCMHYCCKSCWNEYLTTRIEQNLVLNCTCPIADCPAQPTGAFIR
B2: RNF170 RING domain (UniProt Q96K19); chain TRQQFYTDMYCPICLHQASFPVETNCGHLFCGACIIAYWRYGSWLGAISCPICRQTVTLLLTVF
B3: ARK2C RING domain (UniProt Q6ZSG1); chain EGEESDTDEKCTICLSMLEDGEDVRRLPCMHLFHQLCVDQWLAMSKKCPICRVDIETQLGAD
Residues (chain): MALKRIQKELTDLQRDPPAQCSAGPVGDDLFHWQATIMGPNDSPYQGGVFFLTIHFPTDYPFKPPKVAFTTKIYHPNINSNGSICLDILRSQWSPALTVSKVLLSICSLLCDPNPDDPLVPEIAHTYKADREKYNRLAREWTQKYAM
FASPPDSNFVCSVCHGVLKRPARLPCSHIFCKKCILRWLARQKTCPCCRKEVKRKKVVH (RNF151 RING domain (UniProt Q2KHN1)): 0
KTLSRFGIQPCSICLGDAKDPVCLPCDHVHCLRCLRAWFASEQMICPYCLTALPDEFSPA (RNF213 RING domain (UniProt Q63HN8)): 0
RLTMMWEEVTCPICLDPFVEPVSIECGHSFCQECISQVGKGGGSVCPVCRQRFLLKNLRP (TRIM21 RING domain (UniProt P19474)): 0
DAIPSLSECQCGICMEILVEPVTLPCNHTLCKPCFQSTVEKASLCCPFCRRRVSSWTRYH (RNF168 RING domain (UniProt Q8IYW5)): 0
PEELQAMDNVCIICREEMVTGAKRLPCNHIFHTSCLRSWFQRQQTCPTCRMDVLRASLPA (SYVN1 RING domain (UniProt Q86TM6)): 0
B1 (CUL9 RING domain): 0
QLRRLQEERTCKVCMDKEVSVVFIPCGHLVVCQECAPSLRKCPICRGIIKGTVRTF (BIRC2 RING domain (UniProt Q13490)): 0
B2 (RNF170 RING domain): 0
QHHELTSLFECPVCFDYVLPPILQCQAGHLVCNQCRQKLSCCPTCRGALTPSIRNL (SIAH2 RING domain (UniProt O43255)): 0
B3 (ARK2C RING domain): 15000
QLRRLQEERTCKVCMDKEVSIVFIPCGHLVVCKDCAPSLRKCPICRSTIKGTVRTF (BIRC3 RING domain (UniProt Q13489)): 0

Study 3 — technique: RNAcompete; form: RNA; medium: in vitro; tested at: 20 nM; notes: 7-mer, probes averaged, single round; reference: mean of 7-mers; reading: higher = stronger binding; endpoint: 7-mer Z-score
Target: PABPC1L2, full length, GST fusion (mouse, UniProt A0ABA7IW68)
CGUUGGG: -0.00108
UCGUGGG: -0.113
GGUCUAC: -0.248
GUGUAUA: -0.0754
ACCACAC: -0.142
CUCCGCC: -0.469
AGGGAGU: 0.0678
CUAAUCA: -0.0699

Single results of other studies
H2BC11 (Homo sapiens, UniProt P06899) — interaction screen (H2AC12 (Homo sapiens, UniProt Q96KK5); cross-linking MS; hits only): cross-linked

Repeated from above (study 2):
B1 (CUL9 RING domain): 0
QLRRLQEERTCKVCMDKEVSVVFIPCGHLVVCQECAPSLRKCPICRGIIKGTVRTF (BIRC2 RING domain (UniProt Q13490)): 0
B2 (RNF170 RING domain): 0
